Experimental data of several laboratories.
A part holds a random share of what one study measured. Changes are numbered by the printed parent chain.

Series 1
Target: CCNE2, cyclin fold, Cln2 fusion (human)
Method: yeast growth competition, sequencing
Matrix: yeast
Notes: strong parent motif
Reference: not given
Reading: higher = stronger binding
Endpoint: normalised enrichment score
Starting sequence: CDKN1B docking peptide (human); PSACRNLFGPVDH
Substitution = A3H; result = 2.7
Substitution = L7H; result = 0.25
Substitution = P10W; result = 0.928
Substitution = A3R; result = 0.964
Substitution = H13T; result = 1.05
Substitution = V11K; result = 1.03
Substitution = G9E; result = 0.534
Substitution = L7Y; result = 0.0417
Substitution = N6E; result = 0.328
Substitution = G9V; result = 0.461
Substitution = F8C; result = -0.473
Substitution = L7T; result = -0.308
Substitution = S2T; result = 1.43
Substitution = P10Q; result = 1.43
Substitution = D12Q; result = 1.7
Substitution = F8M; result = 0.188
Substitution = R5Q; result = -0.398
Substitution = V11W; result = 2.32

Series 2
Target: Ras GTPase-activating protein-binding protein 1, C-terminal RGG region (G3BP1, Homo sapiens, UniProt Q13283)
Chain of UniProt Q13283 (whole entry, looked up): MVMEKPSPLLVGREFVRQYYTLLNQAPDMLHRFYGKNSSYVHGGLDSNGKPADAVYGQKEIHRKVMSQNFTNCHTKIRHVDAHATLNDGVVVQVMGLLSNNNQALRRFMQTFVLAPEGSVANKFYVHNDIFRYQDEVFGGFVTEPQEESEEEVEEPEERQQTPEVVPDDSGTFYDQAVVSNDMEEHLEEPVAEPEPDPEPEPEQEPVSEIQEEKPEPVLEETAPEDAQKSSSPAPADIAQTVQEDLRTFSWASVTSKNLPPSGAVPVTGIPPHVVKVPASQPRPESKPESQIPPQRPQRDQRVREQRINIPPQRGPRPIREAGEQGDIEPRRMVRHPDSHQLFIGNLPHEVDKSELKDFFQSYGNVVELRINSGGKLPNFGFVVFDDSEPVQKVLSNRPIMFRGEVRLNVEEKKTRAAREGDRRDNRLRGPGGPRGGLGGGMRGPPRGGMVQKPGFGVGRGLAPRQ
Method: RNA Bind-n-Seq
Form: RNA
Matrix: in vitro
Tested at: 1 µM
Notes: whole 134-nt RNA, ends assumed
With: 150 mM KCl
Reference: input library
Reading: higher = stronger binding
Endpoint: log2 enrichment
Shared flanks, not repeated: GGGAGUUCUACAGUCCGACGAUC … UGGAAUUCUCGGGUGUCAAGG
Strand = ACCAUGCAGGUGGGCAUCUUUGGGAAGUGGGGCAAGGGGGGGAUAGGGAGGGGGGUAACACUUAAAGAACAGGUGGUCCCAGGUCGUUUC; result = -1.05
Strand = UCAAGUCCUGUGCUACACAUCGUAUGUACCGAAUCGGUUGGGGUUGGGGUUGGGGAAAGUAUUAUGUUACGCCGUUCGGAUCUGCACUUC; result = 1.41
Strand = GCCCAUGCUAAAGUAAGAUUGUCUAACAAAGUUGAAGCCAUUGAUGUGGAAGAGGCCAAACGCCUCCAUCGGGAAGCUCUGAAGCAGUCU; result = -1.02
Strand = CUGUGCUACACAUCGUAUGUACCGAAUCGGGGUUUUUUUGGGGAAAAAGGGGAAAAAGGGGAAAGUAUUAUGUUACGCCGUUCGGAUCUG; result = 0.0247
Strand = UCAAGUCCUGUGCUACACAUCGUAUGUACCGAAUCGUGUGUGUGUGUGUGUGUGAAAGUAUUAUGUUACGCCGUUCGGAUCUGCACUUCC; result = 0.909
Strand = CAAGUCCUGUGCUACACAUCGUAUGUACCGAAUCAAAUUUAAACCCAAACCCAAAAAAGUAUUAUGUUACGCCGUUCGGAUCUGCACUUC; result = -0.68
Strand = CCUCACCACUCCUUUCUCUUUCAUUCAGUUCCGCUCAGUGGACGAGACUACCCAGGCUAUGGCCUUUGAUGGCAUCAUCUUCCAGGGCCA; result = -0.379
Strand = GCAGGAAGUAAAAACAAAUGGAAAUCCUUCGGAUAGUGGCAGGGGUGGGGGUUGCUAAGGAAAGGGUGGGAUGGGAGUGGGUAAAGAGUU; result = 1.53
Strand = CCUCAAGUCCUGUGCUACACAUCGUAUGUACCGAAUCGGGGUGGGUGGGUGGAAAGUAUUAUGUUACGCCGUUCGGAUCUGCACUUCCAG; result = 1.68

Series 3
Target: ABI1, truncated, D143A, DHFR fusion (Arabidopsis thaliana)
Method: DHFR PCA, deep sequencing
Matrix: yeast
Notes: methotrexate growth selection, single substitutions
With: (+)-ABA 0.0091 µM
Reference: wild-type fitted maximum
Reading: higher = stronger binding
Endpoint: relative binding score
Starting sequence: PYL1, truncated, DHFR fusion (Arabidopsis thaliana); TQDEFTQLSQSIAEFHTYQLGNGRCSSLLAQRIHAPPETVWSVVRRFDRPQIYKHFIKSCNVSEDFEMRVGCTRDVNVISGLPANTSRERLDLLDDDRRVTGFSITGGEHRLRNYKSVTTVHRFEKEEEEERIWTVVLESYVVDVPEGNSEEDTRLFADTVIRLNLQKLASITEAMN; partner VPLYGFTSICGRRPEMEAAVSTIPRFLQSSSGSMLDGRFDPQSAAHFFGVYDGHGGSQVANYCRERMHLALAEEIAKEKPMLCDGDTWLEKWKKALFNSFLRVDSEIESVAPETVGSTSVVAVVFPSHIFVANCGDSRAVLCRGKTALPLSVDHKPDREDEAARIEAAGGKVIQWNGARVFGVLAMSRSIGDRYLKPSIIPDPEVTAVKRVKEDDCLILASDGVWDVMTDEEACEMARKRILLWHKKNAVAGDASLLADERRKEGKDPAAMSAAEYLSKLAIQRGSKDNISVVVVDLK
Substitution = D48V; result = 0.172%
Substitution = E4C; result = 7.27%
Substitution = A84R; result = 8.47%
Substitution = R123M; result = 2.72%
Substitution = D65A; result = 9.26%
Substitution = T101F; result = 65.9%
Substitution = T106I; result = 101%
Substitution = G107P; result = -9.23%
Substitution = R24S; result = 6.63%
Substitution = S171C; result = 21.3%
Substitution = D96Q; result = -1.32%
Substitution = E14H; result = 7.89%

Series 4
Target: RNA binding protein fox-1 homolog 2, RRM domain, GST-SBP tag (RBFOX2, Homo sapiens, UniProt O43251-10, residues 100-194)
Method: RNA Bind-n-Seq
Form: RNA
Matrix: in vitro
Tested at: 365 nM
Notes: natural RNA segment, single round, ends assumed
Reference: no-protein control
Reading: higher = stronger binding
Endpoint: RBNS enrichment (R)
Shared flanks, not repeated: GGGAGUUCUACAGUCCGACGAUC … UGGAAUUCUCGGGUGCCAA
Target sequence (chain): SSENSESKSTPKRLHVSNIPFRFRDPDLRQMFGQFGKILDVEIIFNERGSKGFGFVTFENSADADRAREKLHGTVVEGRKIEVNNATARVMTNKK
Strand = CACUCCAGCAAACAAAGCAACGGCCCUGCUGGGAUUGUCGAAUCUCCCUUGAGGGUUUCAGGGACCUUGAAAAGGGCAGGAGGACCUGCUGUCUUGCAGUUUUACCCCUG; result = 0.337
Strand = GACACAAAUAGGUUUUGGGGAUCUACCUAAGGGAUAGGUCUACUCCAAAAUUAUUAAAUUUAUAAUUGUGCAAUUCUGUAAUUUCCCAAGGCAUAAGUAAUAUGACCCUA; result = 0.677
Strand = UUGGUAACAGAUAAGAGUCUUUCCACUUCAAUCUUCGAAGGUGGCUACAAAGCACAUGCGCCCAAGUGGGAAUCCAAGGACUUUAGACCUAACAAAGUCUCCGAAACUAG; result = 0.4
Strand = UCCCUCCUGUCCCCUCACUGUCCACUUUCUGUUCUUUCCUUGGGUUUCCUGUGAAGUUGGAGGGACGUUUGUAGUCAUGUGACACUAGCCGUCCUGCCCCUGCUGUCAGA; result = 1.19
Strand = AACUGAGUUUUGUUACCAAUGACCUGUUGCAUGCUUCAAUACCGUGUACUGCCUGAGUUGUGCCUCUUGUGUGCUAGAUUAAAAGUGAGACAGAGACUUGACUUGAUCCU; result = 1.22
Strand = UAGGCAUCAUUUUGAGAAUGCUGACACUUUUUCAGGGCUGUGAUUGAGUGAGGGCAUGGGUAAAAAUAUUUCUUUAAAAGAAGGAUGAACAAUUAUAUUUAUAUUUCAGG; result = 0.989
Strand = GGCUCUCUGUAGGCUGGUCCUAGUAGGUGACACCCAGCAACACCCCUGUUGGACAGGAUUGAUUGUUCGCAGUCUUAGACCAACACUUCAGUCAGAAAUGUUACUGGGAG; result = 0.244
Strand = GGGACGCUGGCCGCAGGGAGGAAGGAACAUCUCGGGAGGGCCCUCUGUUCCUCUCCCACGGCAGAUGCCCUCCUCUGUAUGCAAAUCAGCACAGCCUUUAUUGAGCUUUA; result = 0.57

A few entries again (series 2):
Strand = CUGUGCUACACAUCGUAUGUACCGAAUCGGGGUUUUUUUGGGGAAAAAGGGGAAAAAGGGGAAAGUAUUAUGUUACGCCGUUCGGAUCUG; result = 0.0247
Strand = UCAAGUCCUGUGCUACACAUCGUAUGUACCGAAUCGUGUGUGUGUGUGUGUGUGAAAGUAUUAUGUUACGCCGUUCGGAUCUGCACUUCC; result = 0.909
Strand = CAAGUCCUGUGCUACACAUCGUAUGUACCGAAUCAAAUUUAAACCCAAACCCAAAAAAGUAUUAUGUUACGCCGUUCGGAUCUGCACUUC; result = -0.68
Strand = CCUCACCACUCCUUUCUCUUUCAUUCAGUUCCGCUCAGUGGACGAGACUACCCAGGCUAUGGCCUUUGAUGGCAUCAUCUUCCAGGGCCA; result = -0.379
Strand = GCAGGAAGUAAAAACAAAUGGAAAUCCUUCGGAUAGUGGCAGGGGUGGGGGUUGCUAAGGAAAGGGUGGGAUGGGAGUGGGUAAAGAGUU; result = 1.53
Strand = CCUCAAGUCCUGUGCUACACAUCGUAUGUACCGAAUCGGGGUGGGUGGGUGGAAAGUAUUAUGUUACGCCGUUCGGAUCUGCACUUCCAG; result = 1.68
